# Results of several laboratories.
# Each numbered part is a random draw from the data of one study; scales do not carry over between parts. Several values in a cell are separate wells, animals, samples, runs or records.

# Block 1
# Target: Transcription factor SOX-2, HMG box (SOX2, Homo sapiens, UniProt P48431, residues 19-118)
# Chain of UniProt P48431 (19-118, looked up): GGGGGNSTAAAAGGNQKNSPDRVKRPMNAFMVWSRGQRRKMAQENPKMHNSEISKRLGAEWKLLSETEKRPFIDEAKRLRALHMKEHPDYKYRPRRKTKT
# Method: protein-binding microarray
# Molecule type: double-stranded DNA, one strand shown
# Medium: in vitro
# Concentration: not given
# Notes: k-mer, scored over probes, only values ≥0.25
# Reading: higher = stronger binding
Sequence,E-score
AAAAGAA,0.266
AATCATT,0.348
AATGAAT,0.451
CTCAATA,0.252
GAATGTA,0.28
AAAAAAT,0.307
ACAAAAT,0.297
ATTGAGC,0.266
ATAGAAT,0.345
GAATTAA,0.335

# Block 2
# Target: Histone acetyltransferase KAT6A, both winged helices, GST fusion (KAT6A, Homo sapiens, UniProt Q92794, residues 1-181)
# Method: protein binding microarray
# Molecule type: double-stranded DNA, one strand shown
# Medium: in vitro
# Concentration: not given
# Notes: 8-mer, flanks averaged, mean of 2 arrays, mostly near background
# Baseline: not given
# Reading: higher = stronger binding
# Residues (chain): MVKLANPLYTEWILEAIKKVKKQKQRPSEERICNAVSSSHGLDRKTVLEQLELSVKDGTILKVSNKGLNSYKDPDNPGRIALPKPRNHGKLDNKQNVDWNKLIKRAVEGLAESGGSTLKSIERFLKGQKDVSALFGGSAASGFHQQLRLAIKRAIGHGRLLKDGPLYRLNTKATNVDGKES
Sequence,E-score
CACATCCG,0.105
ACCAGATG,-0.191
AGCAGTTA,-0.147
CGCTTCAG,0.00556
ATTCCACC,-0.145
AAACTTGC,0.0638
AAACTGAA,-0.0581
CTTGCACC,-0.0764
GCTTAATA,-0.0206
ATGAACCC,0.00136
ATTGTAAG,-0.0692
AACTGATG,0.0901
CTCGCTTA,-0.0327
AGGATCTC,-0.179
AAGGTGGT,-0.138
GTCCTTAA,-0.0608
AGCTATGG,-0.184
AACGGTGA,0.107

# Block 3
# Target: Sal-like protein 4, full length isoform A (SALL4, Homo sapiens, UniProt Q9UJQ4, residues 1-1053)
# Chain of UniProt Q9UJQ4 (whole entry, looked up): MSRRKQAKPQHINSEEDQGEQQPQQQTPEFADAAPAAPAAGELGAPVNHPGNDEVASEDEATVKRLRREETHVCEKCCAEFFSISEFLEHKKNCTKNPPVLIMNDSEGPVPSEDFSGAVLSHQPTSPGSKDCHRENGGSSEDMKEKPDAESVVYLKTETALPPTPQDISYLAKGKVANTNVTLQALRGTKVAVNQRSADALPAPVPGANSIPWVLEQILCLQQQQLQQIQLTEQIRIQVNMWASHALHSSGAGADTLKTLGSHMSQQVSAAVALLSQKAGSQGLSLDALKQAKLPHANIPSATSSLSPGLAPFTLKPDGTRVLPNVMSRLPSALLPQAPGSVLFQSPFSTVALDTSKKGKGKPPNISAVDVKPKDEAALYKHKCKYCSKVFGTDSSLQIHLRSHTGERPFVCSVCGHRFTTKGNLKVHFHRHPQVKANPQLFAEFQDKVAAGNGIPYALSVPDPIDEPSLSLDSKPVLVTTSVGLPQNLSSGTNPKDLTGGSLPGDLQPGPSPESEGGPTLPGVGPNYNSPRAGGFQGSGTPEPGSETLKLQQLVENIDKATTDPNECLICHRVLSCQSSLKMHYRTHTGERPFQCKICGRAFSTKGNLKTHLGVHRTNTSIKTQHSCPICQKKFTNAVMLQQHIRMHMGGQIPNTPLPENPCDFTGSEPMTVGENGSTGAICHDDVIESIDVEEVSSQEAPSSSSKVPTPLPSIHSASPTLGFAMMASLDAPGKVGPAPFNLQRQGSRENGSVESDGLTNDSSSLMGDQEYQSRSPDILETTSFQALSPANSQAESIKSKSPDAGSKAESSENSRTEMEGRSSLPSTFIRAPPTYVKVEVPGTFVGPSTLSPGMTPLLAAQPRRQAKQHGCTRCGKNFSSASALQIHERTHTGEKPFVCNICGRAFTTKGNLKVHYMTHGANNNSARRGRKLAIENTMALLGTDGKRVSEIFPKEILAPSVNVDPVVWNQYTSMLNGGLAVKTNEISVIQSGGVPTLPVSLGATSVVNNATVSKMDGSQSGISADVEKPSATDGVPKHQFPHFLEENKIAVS
# Method: universal PBM
# Molecule type: double-stranded DNA, one strand shown
# Medium: in vitro
# Concentration: 600 nM
# Notes: 8-mer, flanks averaged, mean of replicates
# Reading: higher = stronger binding
Sequence,E-score
AACTCAAA,0.177
CGCTACAG,-0.0585
CAAGGGTG,-0.16
ACCCCATA,-0.206
CCACTGTA,0.033
AGAAGAGG,-0.0454
CACTATGA,0.132
GGAATGCC,-0.177
ACAAACTC,0.08
CATGGAAC,-0.127
CCCTCTGA,-0.123
AACAAGAG,0.0717
GCATCTAA,0.142

# Single results of other studies
Molecule,target,test,test system,conditions,scale,measurement,value
"PhoQ, residues 284 288 289 292 302 303 NLCILV","PhoP, residues 12 14 15 18 19 LWHSL (Escherichia coli, UniProt P23836)","Sort-seq, refers to: YFP reporter",E. coli,"PhoQ-PhoP variant library, with: 10 µM Mg2+","baseline: high Mg2+ state, higher = stronger signaling",fold induction,13.2 and 16.7

# For quick reference, copied from above (block 2):
Sequence,E-score
CACATCCG,0.105
ACCAGATG,-0.191
